# Experimental data from different studies.
# Each numbered part is a random draw from the data of one study; scales do not carry over between parts.

# Series 1 — method: RNA Bind-n-Seq; molecule type: RNA; matrix: in vitro; tested at: not given; baseline: input RNA pool; direction: higher = stronger binding
# Target: RING finger protein unkempt homolog, zinc fingers 1-6, GST-SBP tag (UNK, Homo sapiens, UniProt Q9C0B0, residues 30-357)
# Notes: RNA with constant flanks, human-mouse chimeric sites, ends assumed
# Shared flanks, not repeated: GGGAGUUCUACAGUCCGACGAUC … CAACAGAGGAUUGAGCAUCA
# Target sequence (chain): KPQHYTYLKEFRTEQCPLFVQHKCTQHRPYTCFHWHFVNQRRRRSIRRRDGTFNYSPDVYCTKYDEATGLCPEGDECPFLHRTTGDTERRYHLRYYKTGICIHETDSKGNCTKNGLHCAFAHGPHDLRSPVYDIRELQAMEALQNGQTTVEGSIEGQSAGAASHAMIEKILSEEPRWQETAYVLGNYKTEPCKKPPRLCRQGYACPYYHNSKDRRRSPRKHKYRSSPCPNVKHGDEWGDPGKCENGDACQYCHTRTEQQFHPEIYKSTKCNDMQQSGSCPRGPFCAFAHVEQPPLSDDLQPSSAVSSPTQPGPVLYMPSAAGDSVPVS
Strand,bound/input enrichment
CAGCCUCAGAGCCCUGACUUCCUGGAUAUUACCAACCCUAAAGCGGUAUUAGAAAAUGCAUUGAGAAACUUCGCCUGUCUGACGACUGGGGAUGUGAUUGCUAUCAACUACAAUGAGAAG,0.621 ratio
AAAGAACCUCUCUCUGAUGAAGAUGAGGACAGUGAUGAUGAUGUUGAACCCAUUUCUGAAUUUCGAUUUGUGCCCAGUGAUAAGUCAGCAUUGGAGGCGAUGUUCACAGCAAUGUGUGAG,0.234 ratio
CUGUGACCACAAGAUCCUACCUGAGUGUUCAGAUGGGUUGACUCCCUCUCCUUGCCUGAACCCCCCCCCACUGCCCCCCCAUCCCCCAGUGUCGGCUGAGAUGUUGCCUCUGCACGGUUC,1.32 ratio
GAAUCCUACUCAGGCGGAUUUUGCAACACCAAGCUCACAGCAGCAGCAUCUUAGUCACAGUAGGGUAGCUUUAGGGCUCUGUGGCCAGGGUUUUAUUCAUGUGCAGGUUUGGAAAAUGUA,0.508 ratio
AGUGUGCAGGAAUUCAUGACCUUUACAAGUCAACUGAUUGUGGAACGCUCAUCGAAAGGCAGCAGAGCUUCUGUCAAAGAACAAGAGUAUCUGUGCCAUGUCUACGUCCGGAGCGACAGU,0.0611 ratio
UUUCUACUGCAGCAAACGAUGCUAAGAAUUAAGGAUCCUAAGAAGUCCCUGGAUUUUUAUACGAGGGUUCUUGGACUGACGCUAAUCCAGAAGCUUGAUUUUCCCAUUAUGAAGUUCUCG,0.121 ratio
UCGGAUGCUGUGCUGGGUCACUUUUCAUAUCCAGAUCCUUCACAGUGGACAGAUGAAGAAUUAGGUAUCCCUCCUGAUGACGAGGACUGACACUGUAAACUCUCUGGCACUCUGUACGCA,0.266 ratio
UGUAGUUGAUCCCCUGCUCAUUUUUCUCUUUUCUUUCUUUCCUUUAGGAAAAGCCUAAAGAUUAGGUUGUAAGAAAAACAGAAGCCAGCCAUGUUUCACCUGUGUUACAGGUAUUUCGUC,0.0742 ratio
GAUAAGAAAAACUUGUUGGAGACCCGCUUGCAUGUCACUGGUAGAGACCUGAGGUGUCAAAUAGCUGAAACUUUCGGAUUUCAAGAAAAUUACAUCAAAAUUGUCAUAAAUAAGAAACAG,0.501 ratio
CUGGCACUCUAUCAGAUAGAUUACUUUUUUAAUGUAGAUGUAAUUUUAAAAAUGAAUGGCUACUUUACACGUUUAACUAGGGUUUUACUACAUAUGUGUACAUAUGUAUAUAUAUAUAUA,23.1 ratio
AAAGUGGACUAUGGUGAGUACAUGGAUAAAAACAAUGUGAGGCGGCAAGCAACAACAAUCAUAGCUGAUAACAUUAUAUUUCUGAGUGACCAGACAAAAGAGAAGGAAUAGAACGGAUGA,2.07 ratio

# Series 2 — method: RNA Bind-n-Seq; molecule type: RNA; matrix: in vitro; tested at: 365 nM; baseline: no-protein control; direction: higher = stronger binding
# Target: RNA binding protein fox-1 homolog 2, RRM domain, GST-SBP tag (RBFOX2, Homo sapiens, UniProt O43251-10, residues 100-194)
# Notes: natural RNA segment, single round, ends assumed
# Shared flanks, not repeated: GGGAGUUCUACAGUCCGACGAUC … UGGAAUUCUCGGGUGCCAA
# Residues (chain): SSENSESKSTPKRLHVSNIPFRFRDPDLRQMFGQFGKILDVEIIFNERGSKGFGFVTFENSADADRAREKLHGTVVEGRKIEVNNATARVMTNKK
Strand,RBNS enrichment (R)
CUGGAACUGGAGAAGAGGAGGCCCCGCCCCACCGCUCCGGGAGCUGCUCAUCAGCCGCAACUUCCUGCCGACCCUGAUGCGGGUGGGCCGAGCAGUGUGGACAUCAGCCA,0.22
UUUUUUUUAAAGAAGAAAAAAAACUACAUAAUUUCUACCAGGGCCAUAUUAGCAGUGAAACAUUUUAAACUGCAGAAAUUGUGGUUUUGGUUCAGAAACAAGUUGUAUAU,0.495
GCAUUUUAAUUAUUUGCAAAUUAAGGUGCCACAGACACAGACUUAGUGGUAUGUAAAUGUUGACUCGGAUCACAAUCAUGUAGCAGAGGGCACUGGGCCUGUUGCCUGCC,0.567
UUGUAAAUAGUUGUUAUUUCUAUAUUUGGAUUGGUGAAAGACCUCAAGUUUAUAUGUAAAGACAUAACUGCCCUUAGUCAUGAAAUUGUUGUGACCUCUACUUUUUGUCA,0.61
AUAGCCCACGUACCCUCGCAGUGUCCAGUAGGGAUCCCAGAGGCACAUAACCAAGAAAGGAUUUUGACUUUGUCACAGUGACUAUUUAAAAUAAUCUAUUCGAAGUCCAA,0.291
UGAAAGUGUAAUAAUAAAAUGUCUAUGUAUCUUUAGUUACAUUCAAAUUUGUAACUUUAUAAACAUGUUUUAUGCUUGAGGAAAUUUUUAAGGUGGUAGUAUAAAUGGAA,1.46
UAAAACCAAUUCUGGAAGCAUCUAAGCUUCCAUAAAUAACUUUAAUUCUUAGCAUAAUGACGGCCUUGGAUUGUCUGACCUCAGUAGCUAUUAAAUAACAUCGAGUAACA,0.495
UGGUAACGUGUCUGGAGUGUGGCACUGGCAGAAUGGGGAAAGAACAGGAAUAUUGGCCAUGAUUCUUUUGCCCUGGGCUUCUUGGGCAUCCGCUACAGCCAUACCAGACA,0.623
ACAUGUUUGUAUAUCUACAUUUACAUUCUGCGCCCCAGAGCUAAGACAGACUGCGAAUCACUUUUCUGCUGUGAGGGUGAUGGUGCCUGAUGCGGUGUCUCGCCUAUCUC,0.527
CCCUCCUGGGCCUUCUGCUGGAUGGGCACCUGGGGGGUUCUGGUUUUUACUUUUUUAAUGUAAGUCUCAGUCUUUGUAAUUAAUUAUUGAAUUGUGAGAACAUUUUUGAA,0.625
UCUCUCAGGGAAAAAACAUGCAGUCUUCAAGCAUCUUCCAUGUACAUUCUAUCUGGGUGAACACCUUCAUUCUGGUAGAGCACCUAACACUUUAACAGCUGUUCCCGAAA,0.583
AUAGAUGUGUUUGCAAUUUGAAGAUAUCUUUCUGUCCAGAAGGCAAAAUUACCGAAUGCCAUUUUUAAAAGUAUGCUAUAAACUAUGCUACUCUCAUACAGGGGACCCGU,0.42

# Series 3 — method: EMSA with sequencing; molecule type: double-stranded DNA, one strand shown; matrix: in vitro; tested at: 10 and 20 nM; baseline: negative control set to 0; direction: higher = stronger binding
# Target: Hepatocyte nuclear factor 3-alpha (Foxa1, Mus musculus, UniProt P35582, residues 1-468, full length assumed)
# Notes: whole designed probe, mean of two concentrations, ends assumed
# Shared flanks, not repeated: GTGAGCGGTGCCCATTGATGGGGAAC … TTTCACTGGGATCGTGGGGAC
# Construct (chain): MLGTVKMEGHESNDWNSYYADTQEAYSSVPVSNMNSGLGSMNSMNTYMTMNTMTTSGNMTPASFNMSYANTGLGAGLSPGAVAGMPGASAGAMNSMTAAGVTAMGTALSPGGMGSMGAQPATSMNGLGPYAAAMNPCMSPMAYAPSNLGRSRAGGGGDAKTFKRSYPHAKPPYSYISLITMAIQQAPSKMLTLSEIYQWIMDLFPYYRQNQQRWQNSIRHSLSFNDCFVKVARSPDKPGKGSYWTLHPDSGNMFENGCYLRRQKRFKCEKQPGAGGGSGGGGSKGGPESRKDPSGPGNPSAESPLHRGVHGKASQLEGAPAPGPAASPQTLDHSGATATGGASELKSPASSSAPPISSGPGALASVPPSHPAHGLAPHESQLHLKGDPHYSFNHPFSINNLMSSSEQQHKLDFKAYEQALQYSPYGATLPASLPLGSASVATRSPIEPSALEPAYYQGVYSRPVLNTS
Strand,normalised bound fraction
TAAATAGCTGTCTGTGGGAGTGTTGACACTGTTGCTATTCAGTGGACTCTAGATATGCAGCCAGATGAACTTTGTGAAGATGAACTTATCAGTGTAAATAAGGAAAGTGGTTGTGATGAAAAGCATGAATGTTCCAGGGGAAATGACTCTGGCAAATTTTTCACATTAAAGGAACTCTTGGAGATACTTCACA,0.195 ratio
AGTTTATTATTTGCTTAAAAACAAATTAATATAATTGCATTGCTTATAAAATGTAACCTTACTTGACCGCTAATGTTGACCTAGTTCTTTTTTCTGTTTACTTTGTTTTGAATTTACTGATAATATGAACCTTGGAAAATCCATCAATACAAAGAGTTTCTGTTTCTATTGATTTGTCAGAGAGGTGTTCTGA,0.49 ratio
CTAGCTCCAGTCTTAGCATGGCAATTTCTTCCCGCAACATACTATTTTCATGCAAGAAGTCTCTTTCTTTCTTACAACTAAGAGAAAGCTAAGTAATCTAAGAGAACTTTTAGTTAGCACTCAATAGATTGACATAACATGATTTCTTTTGAAATTCAAAAATAACATGTATTTGTATAATGAAAGAATCCCC,0.114 ratio
AAAGGCTTCATAATGTTTTTGAGGTGTTTTGTAGGCTAGTTTTTGGGTTTGTTTATTTTAAAAAAAAAACTCTTTAATGTTTTTCAGAAGATAAGTAAACAAGAACAATTATACCTTTTTCTTAATGAACGGAAAGAATCAAGGGTGTCCCTAAGGCTGTGGTGAATATAGGAGCAACTGAGGTGAGGGCCAG,0.492 ratio
TAGACAAGTTTACGTAATCCTTCTGTTCCTCAGTTTCCTCATCTGTTACATGGGTGATATTAATAGGGTGTACCTTTTGATTGGGCTGGACCCTGTTTGCATTCTGCCCTGAAGGAGAGCGGGGCTGTGGGTCAAAGCTGCCCTAATTATAGGTGCAGCATCCGGAGCAAGGTGTTGCTTGGCTCTGCACTGC,0.0348 ratio
AATGAGCTAAGATTCCAACTTAAAAAATGTAAGAATAAACCTGGTGTATCATTCCCAAAGAAAAAGAGCAGTTTAGAAATAATAAGAGCACAAAAATGACATAGAAAAGAAAGACACAGTAGAGAAGATCAACAAAACCAAGAACTGGTTCATAGAAAAATAGCAATAAAATAGACTTCAGGCAAAATTATCC,0.0609 ratio

# Series 4 — method: universal PBM; molecule type: double-stranded DNA, one strand shown; matrix: in vitro; tested at: 600 nM; direction: higher = stronger binding
# Target: Sal-like protein 4, full length isoform A (SALL4, Homo sapiens, UniProt Q9UJQ4, residues 1-1053)
# UniProt Q9UJQ4, sequence (whole entry, looked up): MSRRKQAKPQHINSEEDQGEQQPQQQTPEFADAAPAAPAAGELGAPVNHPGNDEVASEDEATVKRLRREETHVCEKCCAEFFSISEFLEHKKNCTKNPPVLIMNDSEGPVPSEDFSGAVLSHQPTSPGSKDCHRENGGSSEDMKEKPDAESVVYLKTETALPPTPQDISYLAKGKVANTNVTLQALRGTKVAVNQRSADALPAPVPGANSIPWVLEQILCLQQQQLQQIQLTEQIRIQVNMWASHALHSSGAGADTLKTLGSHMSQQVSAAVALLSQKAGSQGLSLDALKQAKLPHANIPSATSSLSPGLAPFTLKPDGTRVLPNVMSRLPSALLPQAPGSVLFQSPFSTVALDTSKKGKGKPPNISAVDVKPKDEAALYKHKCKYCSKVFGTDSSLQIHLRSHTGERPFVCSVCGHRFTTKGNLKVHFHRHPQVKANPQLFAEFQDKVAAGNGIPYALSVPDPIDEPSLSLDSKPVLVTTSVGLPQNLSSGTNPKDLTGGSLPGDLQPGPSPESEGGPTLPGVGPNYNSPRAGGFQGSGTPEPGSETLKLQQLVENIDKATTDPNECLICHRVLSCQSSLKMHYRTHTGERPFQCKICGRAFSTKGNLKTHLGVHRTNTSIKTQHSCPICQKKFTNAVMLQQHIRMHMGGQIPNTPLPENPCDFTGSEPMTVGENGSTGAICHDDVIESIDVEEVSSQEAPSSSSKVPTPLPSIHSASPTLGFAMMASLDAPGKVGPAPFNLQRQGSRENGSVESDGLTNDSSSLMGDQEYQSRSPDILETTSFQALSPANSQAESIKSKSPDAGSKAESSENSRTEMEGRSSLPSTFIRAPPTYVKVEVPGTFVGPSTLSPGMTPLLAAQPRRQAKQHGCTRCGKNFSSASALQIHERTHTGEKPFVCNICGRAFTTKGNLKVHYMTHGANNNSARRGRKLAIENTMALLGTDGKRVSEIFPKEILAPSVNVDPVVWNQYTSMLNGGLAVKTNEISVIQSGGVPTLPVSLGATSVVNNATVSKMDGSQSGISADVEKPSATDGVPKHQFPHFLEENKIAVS
# Notes: 8-mer, flanks averaged, mean of replicates
Strand,E-score
ATAACTCG,0.32
AGATCGAG,0.0259
ACTGGCAC,-0.254
ATACGCGC,-0.0853
CGGCATCC,-0.111
ACGGCCAC,-0.159
AAGTGACG,-0.0342
GACGCGGC,-0.147
AATGCTTA,0.174
GCGCACAA,-0.0316
ATGCGTTA,0.129
AGGGGAGG,-0.192
GCTGTCGA,-0.102
AAATTTGT,0.318
CATCCTCC,-0.174
AGAATAAC,0.189

# Some of these lines once more (series 2):
Strand,RBNS enrichment (R)
UGGUAACGUGUCUGGAGUGUGGCACUGGCAGAAUGGGGAAAGAACAGGAAUAUUGGCCAUGAUUCUUUUGCCCUGGGCUUCUUGGGCAUCCGCUACAGCCAUACCAGACA,0.623
ACAUGUUUGUAUAUCUACAUUUACAUUCUGCGCCCCAGAGCUAAGACAGACUGCGAAUCACUUUUCUGCUGUGAGGGUGAUGGUGCCUGAUGCGGUGUCUCGCCUAUCUC,0.527
CCCUCCUGGGCCUUCUGCUGGAUGGGCACCUGGGGGGUUCUGGUUUUUACUUUUUUAAUGUAAGUCUCAGUCUUUGUAAUUAAUUAUUGAAUUGUGAGAACAUUUUUGAA,0.625
UCUCUCAGGGAAAAAACAUGCAGUCUUCAAGCAUCUUCCAUGUACAUUCUAUCUGGGUGAACACCUUCAUUCUGGUAGAGCACCUAACACUUUAACAGCUGUUCCCGAAA,0.583
AUAGAUGUGUUUGCAAUUUGAAGAUAUCUUUCUGUCCAGAAGGCAAAAUUACCGAAUGCCAUUUUUAAAAGUAUGCUAUAAACUAUGCUACUCUCAUACAGGGGACCCGU,0.42
